Assay results gathered from unrelated publications.
Lines come from different studies, so protocols differ. “And” joins repeats or separate records; there may be more than shown. ± gives the spread as reported. ≈ marks a conversion by molar mass, not a printed value.
inhA: Enoyl-[acyl-carrier-protein] reductase [NADH] (inhA, Mycobacterium tuberculosis, UniProt P9WGR1)
ACHE: Acetylcholinesterase (ACHE, Homo sapiens, UniProt P22303)

Protein sequences, listed by entry. Tags and fused reporters are not part of them. Residues count along the entry.
UniProt P9WGR1, whole entry: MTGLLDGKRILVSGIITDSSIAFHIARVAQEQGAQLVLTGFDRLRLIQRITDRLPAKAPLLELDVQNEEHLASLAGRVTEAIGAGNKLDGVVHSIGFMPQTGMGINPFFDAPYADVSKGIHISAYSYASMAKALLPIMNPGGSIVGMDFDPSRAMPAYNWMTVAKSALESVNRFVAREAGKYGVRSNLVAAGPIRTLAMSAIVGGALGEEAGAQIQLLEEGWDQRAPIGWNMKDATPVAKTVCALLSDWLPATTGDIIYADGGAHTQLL
UniProt P22303, whole entry, looked up: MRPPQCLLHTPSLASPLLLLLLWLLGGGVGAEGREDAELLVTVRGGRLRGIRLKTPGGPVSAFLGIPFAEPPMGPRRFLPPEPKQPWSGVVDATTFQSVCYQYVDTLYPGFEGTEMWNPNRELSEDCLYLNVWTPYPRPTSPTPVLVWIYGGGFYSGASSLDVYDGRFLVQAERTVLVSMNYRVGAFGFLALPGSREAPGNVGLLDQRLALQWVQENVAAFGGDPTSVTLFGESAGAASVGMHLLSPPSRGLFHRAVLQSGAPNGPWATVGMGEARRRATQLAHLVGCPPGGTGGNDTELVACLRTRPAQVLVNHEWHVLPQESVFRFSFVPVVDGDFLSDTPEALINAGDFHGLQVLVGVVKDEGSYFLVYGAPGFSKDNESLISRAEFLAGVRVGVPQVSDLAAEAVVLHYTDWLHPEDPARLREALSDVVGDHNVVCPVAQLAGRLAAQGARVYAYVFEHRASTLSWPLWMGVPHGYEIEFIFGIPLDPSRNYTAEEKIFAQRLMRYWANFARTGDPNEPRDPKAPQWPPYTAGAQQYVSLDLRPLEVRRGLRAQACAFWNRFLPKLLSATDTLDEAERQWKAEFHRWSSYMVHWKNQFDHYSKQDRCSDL
UniProt P05091, 18-517 limits assumed: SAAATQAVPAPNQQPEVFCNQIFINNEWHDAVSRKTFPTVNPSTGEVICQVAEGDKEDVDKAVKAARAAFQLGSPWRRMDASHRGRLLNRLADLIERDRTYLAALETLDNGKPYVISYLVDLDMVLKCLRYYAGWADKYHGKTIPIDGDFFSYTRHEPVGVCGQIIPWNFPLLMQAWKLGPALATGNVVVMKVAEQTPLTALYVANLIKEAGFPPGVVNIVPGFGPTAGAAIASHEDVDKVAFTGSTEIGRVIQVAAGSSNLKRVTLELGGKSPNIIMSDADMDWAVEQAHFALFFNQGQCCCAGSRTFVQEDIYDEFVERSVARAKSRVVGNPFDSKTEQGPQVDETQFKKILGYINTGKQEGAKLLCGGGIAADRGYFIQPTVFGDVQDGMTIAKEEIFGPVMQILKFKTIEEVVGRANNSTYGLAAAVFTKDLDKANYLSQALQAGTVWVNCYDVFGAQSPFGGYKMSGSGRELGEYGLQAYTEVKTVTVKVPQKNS
UniProt P41143, whole entry: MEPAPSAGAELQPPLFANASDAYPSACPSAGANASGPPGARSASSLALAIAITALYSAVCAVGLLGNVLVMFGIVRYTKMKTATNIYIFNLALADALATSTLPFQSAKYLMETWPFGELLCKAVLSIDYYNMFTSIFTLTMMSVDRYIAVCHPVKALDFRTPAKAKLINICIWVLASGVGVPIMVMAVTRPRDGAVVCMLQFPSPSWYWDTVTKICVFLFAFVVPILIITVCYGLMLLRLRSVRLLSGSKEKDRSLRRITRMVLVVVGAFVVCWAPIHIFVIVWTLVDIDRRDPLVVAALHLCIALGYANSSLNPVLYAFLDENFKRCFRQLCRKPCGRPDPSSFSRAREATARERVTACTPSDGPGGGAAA
UniProt P9WFX1, whole entry: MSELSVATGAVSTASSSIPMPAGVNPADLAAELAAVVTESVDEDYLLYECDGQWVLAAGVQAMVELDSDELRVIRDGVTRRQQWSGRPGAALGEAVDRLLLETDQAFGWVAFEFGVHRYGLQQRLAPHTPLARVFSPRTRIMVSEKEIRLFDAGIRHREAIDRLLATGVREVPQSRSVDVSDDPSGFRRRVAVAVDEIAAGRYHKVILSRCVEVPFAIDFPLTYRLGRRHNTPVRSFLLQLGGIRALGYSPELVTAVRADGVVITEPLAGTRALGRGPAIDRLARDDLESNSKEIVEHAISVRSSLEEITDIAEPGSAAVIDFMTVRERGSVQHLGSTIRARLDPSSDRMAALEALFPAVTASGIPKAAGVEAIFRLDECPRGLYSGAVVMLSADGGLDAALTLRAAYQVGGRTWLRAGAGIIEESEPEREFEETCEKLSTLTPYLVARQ
UniProt R4P353, 1-724 S562A limits assumed: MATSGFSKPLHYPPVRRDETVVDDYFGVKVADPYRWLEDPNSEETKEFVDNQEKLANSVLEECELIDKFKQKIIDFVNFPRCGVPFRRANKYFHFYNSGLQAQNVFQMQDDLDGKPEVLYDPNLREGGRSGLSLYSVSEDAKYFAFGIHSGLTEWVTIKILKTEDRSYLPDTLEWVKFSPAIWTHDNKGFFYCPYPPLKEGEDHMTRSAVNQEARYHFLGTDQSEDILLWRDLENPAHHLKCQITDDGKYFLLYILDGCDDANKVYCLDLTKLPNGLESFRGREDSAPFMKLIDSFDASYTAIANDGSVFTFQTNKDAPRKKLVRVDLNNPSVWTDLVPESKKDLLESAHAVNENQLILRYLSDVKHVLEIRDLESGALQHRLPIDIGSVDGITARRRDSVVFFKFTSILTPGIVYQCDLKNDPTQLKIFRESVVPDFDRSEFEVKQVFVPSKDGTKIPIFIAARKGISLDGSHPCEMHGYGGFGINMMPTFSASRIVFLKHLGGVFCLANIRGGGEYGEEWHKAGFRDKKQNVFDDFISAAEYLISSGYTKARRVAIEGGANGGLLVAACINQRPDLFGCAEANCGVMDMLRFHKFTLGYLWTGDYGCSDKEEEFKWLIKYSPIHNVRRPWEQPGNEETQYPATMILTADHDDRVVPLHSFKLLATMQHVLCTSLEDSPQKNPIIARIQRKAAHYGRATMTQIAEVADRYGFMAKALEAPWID
UniProt O14939, whole entry: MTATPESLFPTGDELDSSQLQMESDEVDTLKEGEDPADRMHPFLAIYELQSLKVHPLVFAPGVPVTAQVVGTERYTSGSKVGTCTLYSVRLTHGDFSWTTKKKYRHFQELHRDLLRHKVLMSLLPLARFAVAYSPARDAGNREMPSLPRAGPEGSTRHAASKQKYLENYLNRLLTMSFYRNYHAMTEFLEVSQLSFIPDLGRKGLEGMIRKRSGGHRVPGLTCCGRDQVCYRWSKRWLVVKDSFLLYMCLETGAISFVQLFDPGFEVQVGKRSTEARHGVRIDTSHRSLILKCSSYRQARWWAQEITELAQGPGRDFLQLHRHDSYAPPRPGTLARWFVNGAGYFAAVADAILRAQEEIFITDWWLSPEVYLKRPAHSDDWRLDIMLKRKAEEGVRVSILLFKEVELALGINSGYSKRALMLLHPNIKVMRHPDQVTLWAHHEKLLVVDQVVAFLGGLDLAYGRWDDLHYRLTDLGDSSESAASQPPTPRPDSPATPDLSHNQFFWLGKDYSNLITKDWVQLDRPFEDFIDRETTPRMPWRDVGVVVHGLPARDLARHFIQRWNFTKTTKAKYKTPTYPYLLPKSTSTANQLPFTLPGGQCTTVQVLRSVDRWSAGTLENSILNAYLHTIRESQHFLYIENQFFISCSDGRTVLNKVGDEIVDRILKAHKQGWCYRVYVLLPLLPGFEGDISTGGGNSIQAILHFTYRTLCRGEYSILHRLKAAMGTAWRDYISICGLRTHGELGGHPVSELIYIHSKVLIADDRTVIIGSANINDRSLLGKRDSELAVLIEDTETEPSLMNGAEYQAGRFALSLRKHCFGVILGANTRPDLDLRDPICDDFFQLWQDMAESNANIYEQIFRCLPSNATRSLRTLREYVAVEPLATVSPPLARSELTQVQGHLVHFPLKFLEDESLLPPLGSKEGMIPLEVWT
UniProt P06730, whole entry: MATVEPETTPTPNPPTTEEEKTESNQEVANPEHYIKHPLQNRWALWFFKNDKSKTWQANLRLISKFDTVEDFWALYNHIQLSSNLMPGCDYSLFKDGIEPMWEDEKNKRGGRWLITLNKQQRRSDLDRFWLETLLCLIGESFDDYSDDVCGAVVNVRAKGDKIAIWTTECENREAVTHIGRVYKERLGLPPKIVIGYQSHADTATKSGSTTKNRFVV
UniProt O15393, whole entry S251D/R252D/Q253D/S254D/R255K, looked up: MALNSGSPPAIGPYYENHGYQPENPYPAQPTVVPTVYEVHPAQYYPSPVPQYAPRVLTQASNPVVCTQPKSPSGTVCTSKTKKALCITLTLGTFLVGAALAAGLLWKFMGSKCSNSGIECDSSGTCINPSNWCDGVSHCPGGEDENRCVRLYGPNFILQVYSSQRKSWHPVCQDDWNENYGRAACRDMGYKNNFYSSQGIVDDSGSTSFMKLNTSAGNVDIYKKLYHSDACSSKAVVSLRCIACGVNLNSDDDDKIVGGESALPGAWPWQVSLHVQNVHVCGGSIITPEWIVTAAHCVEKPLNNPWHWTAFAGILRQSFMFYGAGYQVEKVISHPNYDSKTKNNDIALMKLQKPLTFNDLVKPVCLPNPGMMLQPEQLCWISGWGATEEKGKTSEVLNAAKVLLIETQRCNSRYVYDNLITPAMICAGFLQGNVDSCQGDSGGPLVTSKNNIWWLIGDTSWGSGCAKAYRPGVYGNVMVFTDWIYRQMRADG
UniProt P47898, whole entry: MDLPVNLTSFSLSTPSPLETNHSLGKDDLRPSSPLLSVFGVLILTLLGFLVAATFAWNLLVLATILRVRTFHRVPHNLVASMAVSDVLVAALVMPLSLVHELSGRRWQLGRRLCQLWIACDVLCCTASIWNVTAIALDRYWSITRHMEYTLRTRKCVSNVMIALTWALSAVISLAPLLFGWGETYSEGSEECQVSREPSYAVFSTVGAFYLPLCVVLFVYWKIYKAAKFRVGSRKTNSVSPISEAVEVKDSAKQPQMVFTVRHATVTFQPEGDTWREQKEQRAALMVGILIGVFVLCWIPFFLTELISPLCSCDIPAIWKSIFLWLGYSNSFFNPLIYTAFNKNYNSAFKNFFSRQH
UniProt P23977, whole entry: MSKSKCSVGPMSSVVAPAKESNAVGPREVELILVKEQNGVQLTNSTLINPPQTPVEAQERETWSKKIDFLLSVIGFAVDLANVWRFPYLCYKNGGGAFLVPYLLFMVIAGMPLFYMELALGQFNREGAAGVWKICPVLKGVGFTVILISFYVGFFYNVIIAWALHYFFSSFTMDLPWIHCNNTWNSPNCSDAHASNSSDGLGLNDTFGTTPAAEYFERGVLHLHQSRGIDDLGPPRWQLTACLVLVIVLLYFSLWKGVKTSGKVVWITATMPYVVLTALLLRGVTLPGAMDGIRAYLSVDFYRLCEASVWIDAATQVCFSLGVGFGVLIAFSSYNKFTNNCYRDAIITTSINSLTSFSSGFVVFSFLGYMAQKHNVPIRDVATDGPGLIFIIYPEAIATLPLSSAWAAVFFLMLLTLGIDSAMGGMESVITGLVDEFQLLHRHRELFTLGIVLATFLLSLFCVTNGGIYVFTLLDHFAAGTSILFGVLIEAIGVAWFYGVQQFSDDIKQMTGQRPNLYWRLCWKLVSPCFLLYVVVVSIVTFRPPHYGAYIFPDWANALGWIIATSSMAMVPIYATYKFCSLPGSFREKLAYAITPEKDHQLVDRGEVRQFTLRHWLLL

| Compound | target or system | test | test system | setting | scale | quantity | result |
| --- | --- | --- | --- | --- | --- | --- | --- |
| N#Cc1ccccc1Oc1ccc(Cn2cc(C3CCCCC3)nn2)cc1O | inhA | enzyme inhibition, inhibitor, progress curve analysis |  | 20 °C |  | residence time | 119 ± 23 min |
| C[C@H](CS)C(=O)N[C@H](Cc1c[nH]c2ccccc12)C(=O)O | Klebsiella pneumoniae |  | IMP-1 producing | 25 µM, added: meropenem |  | MIC of meropenem | 1 µg/mL |
| [N-]=[N+]=NCC=O | ALDH2 (Homo sapiens, UniProt P05091) | substrate, NAD+ to NADH conversion |  |  |  | Km | 80 µM |
| CN1CC[C@]23c4c5ccc(O)c4O[C@H]2c2ncc(-c4ccc(Cl)cc4)cc2C[C@@]3(OCCCc2ccccc2)[C@H]1C5 | OPRD1 (Homo sapiens, UniProt P41143) | β-arrestin 2 recruitment, agonist, PathHunter |  |  | baseline: compound over SNC80 | relative potency | ≤ 2 fold |
| O=C(O)c1ccc(-c2ccc(C(F)(F)F)cc2Cl)o1 | mbtI (Mycobacterium tuberculosis, UniProt P9WFX1) | enzyme activity |  | 100 µM, pH 7.5 |  | remaining activity | 6.1 ± 2.5% |
| CC(CCN[C@H](CN[C@H](CO)CN1CCC[C@H]1CN[C@H](CN)c1ccccc1)c1ccccc1)c1ccccc1 (stereo partly shown) | Escherichia coli | bacterial growth |  | 24 µM, fold shift of IC90, added: amikacin |  | potentiation of amikacin | 3.7 fold |
| C=CC(=O)Nc1cc(-n2c(=O)ccc3cnc4ccc(-c5cn[nH]c5)cc4c32)ccc1C | Ramos | western blot |  | concentration not given, 4 h |  | MNK phosphorylation | no effect |
| CC(C)[C@H](NC(=O)[C@@H]1CCCN1C(=O)[C@H](C)NC(=O)[C@H](CO)NC(=O)[C@H](C)NC(=O)[C@H](CC(N)=O)NC(=O)[C@H](CCC(=O)O)NC(=O)[C@@H](NC(=O)[C@H](CC(=O)O)NC(=O)[C@H](CCCCN)NC(=O)[C@H](C)NC(=O)[C@H](CCC(N)=O)NC(=O)[C@H](Cc1ccccc1)NC(=O)[C@H](C)NC(=O)[C@H](Cc1c[nH]c2ccccc12)NC(=O)[C@H](C)NC(=O)[C@@H](NC(=O)CN)C(C)C)C(C)C)C(=O)O | Peptide cyclase 1 (Gypsophila vaccaria, UniProt R4P353, S562A) | binding, isothermal titration calorimetry |  | pH 8.0, 25 °C |  | ΔG | -9.04 kcal/mol |
| O=C(NCCN1CCC2(CC1)C(=O)NCN2Cc1cccnc1)c1ccc2ccccc2c1 | Phospholipase D2 (Homo sapiens, UniProt O14939) | cell-based |  |  | baseline: PLD1 IC50 over PLD2 IC50 | selectivity ratio | > 80 fold |
| [11CH3]Nc1ccc(C(=O)C2CCN(C3Cc4ccccc4CC3O)CC2)cc1 (single isomer, unassigned) |  |  | Sprague-Dawley rat, brain stem | 30 min |  | uptake | 0.245 %ID/g |
| Oc1cc(Cn2cc(C3CC3)nn2)ccc1Oc1ccccc1Cl | inhA |  |  | 20 °C, EI to EI* |  | isomerization rate k5 | 1.1 min⁻¹ |
| CC(C)(C)c1cc[n+](COC[n+]2ccc(C(C)(C)C)cc2)cc1 | ACHE |  |  |  | baseline: BChE IC50 over AChE IC50 | selectivity ratio | 6.2 |
| Cc1ccc(-c2csc(NP(=O)(O)OCC3OC(n4c[n+](Cc5ccccc5)c5c(=O)[nH]c(NC(=O)c6ccccc6)nc54)C4OC(C)(C)OC34)n2)cc1 (stereo not shown) | Eukaryotic translation initiation factor 4E, phosphorylated (EIF4E, Homo sapiens, UniProt P06730) | refers to: EIF4E | MCF7 | concentration not given | baseline: untreated | fold change | 0.74 |
| CSCC[C@H](NC(=O)[C@H](Cc1ccccc1)NC(=O)CNC(=O)CNC(=O)[C@@H](N)Cc1ccc(O)cc1)C(=O)O | neuron-specific aminopeptidase, rat | substrate |  | MW 110 kDa |  | kcat | 7.8 s⁻¹ |
| CC(C)(C)O[C@@H]1C[C@@H](C(=O)N[C@H](Cc2ccccc2)C(=O)C(=O)NCc2ccc(Cl)cn2)N(C(=O)[C@@H](NC(=O)C2CCC(F)(F)CC2)C2CCCCC2)C1 | TMPRSS2 (Homo sapiens, UniProt O15393, Q253D/R252D/R255K/S251D/S254D) | enzyme activity, inhibitor |  | 18.52 µM |  | inhibition | -1.03% and -4.9% and -5.67% |
| COc1ccc(CN[C@@H]2CO[C@H](C(c3ccccc3)c3ccccc3)C[C@H]2O)cc1 | HTR5A (Homo sapiens, UniProt P47898) | radioligand binding |  | 10 µM, added: [3H]LSD |  | inhibition | 22.5% |
| CCN(CC)Cc1cc(N)ccc1O | ACHE | enzyme activity, noncompetitive inhibitor |  | added: acetylthiocholine |  | Ki' | 37.4 ± 2.1 µM |
| NCCNCCSc1ccccc1 |  | shake flask | simulated gastric fluid | 24 h, pH 1.2, 37 °C |  | solubility | 747 ± 30 mg/mL (≈ 3810 mM) |
| CCNC(C)Cc1ccc2c(c1)OCO2 (stereo not shown) | Slc6a3 (Rattus norvegicus, UniProt P23977) | dopamine release, releaser | rat brain synaptosomes |  | baseline: maximal release | Emax | 61 ± 2% |

Some of these lines once more:
| Compound | target or system | test | test system | setting | scale | quantity | result |
| --- | --- | --- | --- | --- | --- | --- | --- |
| CN1CC[C@]23c4c5ccc(O)c4O[C@H]2c2ncc(-c4ccc(Cl)cc4)cc2C[C@@]3(OCCCc2ccccc2)[C@H]1C5 | OPRD1 (Homo sapiens, UniProt P41143) | β-arrestin 2 recruitment, agonist, PathHunter |  |  | baseline: compound over SNC80 | relative potency | ≤ 2 fold |
| O=C(O)c1ccc(-c2ccc(C(F)(F)F)cc2Cl)o1 | mbtI (Mycobacterium tuberculosis, UniProt P9WFX1) | enzyme activity |  | 100 µM, pH 7.5 |  | remaining activity | 6.1 ± 2.5% |
